Experimental data collected from several papers.
Compare with care: the assays were run in different laboratories. Values joined by “and” are separate records of one study, mostly repeats; a detail may differ. ± marks the error that the study gave.
BIRC3 BIR1 domain: Baculoviral IAP repeat-containing protein 3, BIR1 domain (BIRC3, Homo sapiens, UniProt Q13489)
STUB1: E3 ubiquitin-protein ligase CHIP (STUB1, Homo sapiens, UniProt Q9UNE7)
HTR7: 5-hydroxytryptamine receptor 7 (HTR7, Homo sapiens, UniProt P34969)

CCCCCC(O)C(CC=O)SC[C@H](NC(C)=O)C(=O)O (some centres unmarked)  kcat (N-acyl-aromatic-L-amino acid amidohydrolase (carboxylate-forming) (Acy3, Mus musculus, UniProt Q91XE4); substrate, fluorescamine; together with: Co2+ 0.1 mM): 1.67 s⁻¹
CNc1ncc2c(/C=C/C(=O)N3CCC(OC)CC3)nn(Cc3cccc(C(F)(F)F)c3)c2n1  remaining activity (Serine/threonine-protein kinase D3 (PRKD3, Homo sapiens, UniProt O94806); kinase activity, inhibitor; 1 µM; baseline: untreated control): 89%
Nc1nc2c(ncn2[C@@H]2O[C@H](COP(=O)(O)O)[C@@H](O)[C@H]2O)c(=O)[nH]1  reaction velocity (GUK1 (Homo sapiens, UniProt Q16774); enzyme activity, NADH-coupled; 15.62 µM, together with: NaCl 10 mM): 0.0292 µM/s and 0.0148 µM/s and 0.0179 µM/s
CCC1(O)CCCN(C(=O)c2ccc(-c3ccc(F)c(NC(=O)CCl)c3)cc2)C1 (centres unmarked)  protein adduct (DNA dC->dU-editing enzyme APOBEC-3B, C-terminal domain (Homo sapiens, UniProt Q9UH17); covalent modifier, intact protein mass spectrometry, refers to: adduct +26104 Da; 250 µM, 1 h, 10-fold molar excess): 0%
CCOc1ccc(C2c3c(oc4ccc(C)cc4c3=O)C(=O)N2CCCN(C)C)cc1OC (centres unmarked)  activity (Growth hormone secretagogue receptor type 1 (GHSR, Homo sapiens, UniProt Q92847); intracellular calcium mobilization; HEK293 cells stably expressing receptor; concentration not given, pure resynthesized compound): inactive
Cc1ccc(N2CC(C(N)=O)CC2=O)cc1 (centres unmarked)  log fold enrichment (BIRC3 BIR1 domain; binding, affinity selection mass spectrometry; baseline: other proteins in batch): 0.0527
O=C(O)C[C@@H](O)C(=O)O  thermal shift (Uncharacterized protein (Pelagibacter ubique, UniProt Q4FKX4); differential scanning fluorimetry; Candidatus Pelagibacter ubique; in-house screen): 10.3 °C
C[C@]12C[C@H](O)[C@H]3[C@@H](CCC4=CC(=O)CC[C@@]43C)[C@@H]1CC[C@@H]2C(=O)CO  NADPH consumption rate, 18-hydroxylation (Cytochrome P450 11B2, mitochondrial (CYP11B2, Homo sapiens, UniProt P19099); substrate; 100 µM, 37 °C, phospholipid vesicles): 35.5 ± 5.3 min⁻¹
CCCCC[C@H](O)/C=C/[C@H]1[C@H](O)CC(=O)[C@@H]1C/C=C\CCCC(=O)O  Emax (Prostaglandin E2 receptor EP1 subtype (PTGER1, Homo sapiens, UniProt P34995, R338A); IP1 accumulation, agonist; AD293; 1 h, EP1 R338A mutant): 43.1 ± 6.78%
C[C@H](CCC(C)(C)O)[C@H]1CC[C@H]2[C@@H]3CC=C4C[C@@](C)(O)CC[C@]4(C)[C@H]3CC[C@]12C  current potentiation (Glutamate NMDA receptor; GRIN1/GRIN2B (GRIN1/GRIN2B, Homo sapiens, UniProt Q05586+Q13224, R755A); ion current, positive allosteric modulator, two-electrode voltage clamp; Xenopus oocytes; 10 µM, GluN1-R755A mutant, together with: 100 µM glutamate and glycine; baseline: absence of compound): 174 ± 6.1%
Cc1ccc(-n2nc(C)c3c(N)nc(N)nc32)c(Cl)c1  remaining binding (Serine/threonine-protein kinase RIO2 (RIOK2, Homo sapiens, UniProt Q9BVS4); KinomeScan competition; 7.5 µM): 21%
Nc1ccc2cc3ccc(N)cc3nc2c1  binding enthalpy (Chymotrypsinogen A, activated (alpha-chymotrypsin) (Bos taurus, UniProt P00766); isothermal titration calorimetry; concentration not given, 25 °C, together with: 0.5 M N,N-dimethylglycine): -20.7 ± 1.41 kcal/mol
O=C(COP(=O)(O)O)[C@@H](O)[C@H](O)[C@H](O)COP(=O)(O)O  thermal stability ratio (Actin, aortic smooth muscle (ACTA2, Homo sapiens, UniProt P62736); thermal proteome profiling, refers to: ACTA2; HepG2 cell lysate; concentration not given, 57 over 37 °C; baseline: compound over control): 0.583 and 0.476 and 0.8
CC1CCCN(C(=O)c2cc3ncccn3n2)C1 (centres unmarked)  fold enrichment (Histone acetyltransferase type B catalytic subunit (Homo sapiens, UniProt O14929); binding, affinity selection mass spectrometry; baseline: other proteins in batch): 1.1
O=C(CN1CCO[C@H](COc2cccnc2)C1)N1CCc2ccccc21  inhibition (5-hydroxytryptamine receptor 2C (HTR2C, Homo sapiens, UniProt P28335); radioligand binding; concentration not given, together with: [3H]mesulergine): 36.4%
CC(=C/C(=O)O)/C=C/C=C(\C)C1C=C2C(C)(C)CCCC2(C)O1 (centres unmarked)  Pearson correlation coefficient (Rhodopsin (RHO, Homo sapiens, UniProt P08100, T17M); ER retention, immunostaining co-localization, refers to: opsin with calnexin; COS-7 transfected T17M; 20.00 µM): 0.5
Nc1ncnc2c1ncn2[C@@H]1O[C@H](COP(=O)(O)CP(=O)(O)OP(=O)(O)O)[C@@H](O)[C@H]1O  calcium influx (P2X purinoceptor 1 (P2RX1, Homo sapiens, UniProt P51575, S286A); calcium influx; 100 nM; baseline: ionomycin response): 43.6% and 26.3% and 37.5% and 40.2%
c1ccc(C(NCc2cccnc2)(c2ccccc2)c2ccccc2)cc1  fast over slow component rate (Potassium voltage-gated channel subfamily KQT member 1 (KCNQ1, Homo sapiens, UniProt P51787); fractional inhibition kinetics): ~50 fold
NC(=O)C1=CN([C@@H]2O[C@H](COP(=O)(O)OP(=O)(O)OC[C@H]3O[C@@H](n4cnc5c(N)ncnc54)[C@H](O)[C@@H]3O)[C@@H](O)[C@H]2O)C=CC1  kcat (FSP1, ancestral; oxidase activity, substrate, refers to: superoxide, nitroblue tetrazolium; together with: atmospheric O2): 0.51 ± 0.04 s⁻¹
O=c1nc(SCc2ccc(C(F)(F)F)cc2)nc(SCc2csc3ccc(Cl)cc23)[nH]1  relaxed DNA (DNA topoisomerase 2-alpha (TOP2A, Homo sapiens, UniProt P11388); DNA relaxation; 15.6 µM, replicate 2): 0.5%
CCCCC[S+]([O-])c1n[nH]c(N)n1 (centres unmarked)  fold enrichment (BIRC3 BIR1 domain; binding, affinity selection mass spectrometry; baseline: other proteins in batch): 1.46
Cc1cc(=O)oc2cc(O)ccc12  Vmax (UDP-glucuronosyltransferase 1A9 (UGT1A9, Homo sapiens, UniProt O60656); glucuronidation, substrate; recombinant enzyme): 3650 pmol/min/mg
CC(C)C(=O)Nc1n[nH]c2cc(-c3cccc(NS(=O)(=O)C4CC4)c3)ccc12  ADP produced (Phosphatidylinositol 4-phosphate 5-kinase type-1 gamma (PIP5K1C, Homo sapiens, UniProt O60331); ADP-Glo; 370 nM, together with: 10 µM ATP): 2.6 µM
CC1(C)CC2(C)OC(=O)NC2(C)c2ccccc21 (centres unmarked)  fold enrichment (STUB1; binding, affinity selection mass spectrometry; baseline: other proteins in batch): 0.992
CC[C@H](C)[C@H](NC(=O)[C@H](CC(=O)O)NC(=O)[C@H](CCC(=O)O)NC(=O)[C@@H](N)CC(N)=O)C(=O)N[C@@H](CC(=O)O)C(=O)N[C@@H](CCC(N)=O)C(=O)N[C@@H](CCSC)C(=O)N[C@@H](Cc1ccccc1)C(=O)N[C@@H](CO)C(=O)N[C@H](C(=O)N[C@@H](CC(C)C)C(=O)N[C@@H](CC(C)C)C(=O)NCC(=O)N[C@@H](CCC(=O)O)C(=O)N[C@@]1(C)CCCC=CCCC[C@@](C)(C(=O)N[C@@H](CCC(N)=O)C(=O)N[C@@H](CO)C(=O)O)NC(=O)[C@H](CC(C)C)NC(=O)[C@H](CC(C)C)NC(=O)[C@H](CC(=O)O)NC1=O)[C@@H](C)O  β3-talin head domain interaction (Talin-1, with integrin beta3 (Tln1, Mus musculus, UniProt P26039); inhibitor, fluorescence polarization): inhibited
Clc1cccc(OC[C@@H]2CN(CCN3CCc4ccccc43)CCO2)c1  inhibition (HTR7; radioligand binding; concentration not given, together with: [3H]LSD): 25.9%
C=CC(=O)N1CCC(C(=O)NCC(=O)N2CCN(c3nc(-c4cnc(N)nc4C(F)F)nc(N4CCOCC4)n3)CC2)CC1  remaining binding (1-phosphatidylinositol 3-phosphate 5-kinase (PIKFYVE, Homo sapiens, UniProt Q9Y2I7); KINOMEscan; 1 µM): 74%
Cc1cccc(N2CC(C(=O)O)CC2=O)c1 (centres unmarked)  log fold enrichment (STUB1; binding, affinity selection mass spectrometry; baseline: other proteins in batch): -0.0805
COc1cc2c(cc1OC)C(=O)N(CCCCN1CCN(c3ccccc3OC)CC1)C2  inhibition (HTR7; radioligand binding; concentration not given, together with: [3H]LSD): 91.8%
Nc1ncnc2c1ncn2[C@@H]1O[C@H](COP(=O)(O)OP(=O)(O)OP(=O)(O)O)[C@@H](O)[C@H]1O  Km (Hexokinase-3 (HK3, Homo sapiens, UniProt P52790, R807A); substrate; mutant R807A, together with: glucose 0.5 mM): 2200 ± 400 µM
CN1CCN(C(=O)c2cccc(-c3nc(N)nc(-c4ccccc4O)n3)c2)CC1  pKD change (human adenosine A2A receptor I66A; biophysical mapping; concentration not given; baseline: wild type): 0.1
O=C1c2ccccc2CCN1CCCCN1CCN(c2cccc(Cl)c2Cl)CC1  inhibition (5-hydroxytryptamine receptor 2A (HTR2A, Homo sapiens, UniProt P28223); radioligand binding; concentration not given, together with: [3H]ketanserin): 98.7%
CC[C@@H](C)[C@@H](NC(=O)[C@@H](Cc1ccc(O)cc1)NC(=O)[C@H]1CCCN1C(=O)[C@@H](CCCNC(=N)N)NC(=O)[C@H](N)Cc1c[nH]cn1)C(=O)N[C@H](C)C(=O)N[C@H](Cc1c[nH]cn1)C(=O)N[C@H](CCCNC(=N)N)C(=O)N[C@@H](C(=O)N[C@H](Cc1ccc(O)cc1)C(=O)N[C@H](CO)C(=O)N[C@H](Cc1ccccc1)C(N)=O)C(C)C  surface TFRC expression (Transferrin receptor protein 1 (Tfrc, Mus musculus, UniProt Q62351); flow cytometry; RAW264.7; 6 h, pH 6, unit not given; baseline: 0 h): 0.966 and 0.965
O=C(O)C1CCCNC1 (centres unmarked)  normalised MST signal (Sodium- and chloride-dependent taurine transporter (SLC6A6, Homo sapiens, UniProt P31641, G62A); binding, microscale thermophoresis; 7.81 µM, room temperature, together with: 50 nM labelled protein; higher = more binding): 0.201
CCS(=O)(=O)N1CC(CC#N)(n2cc(-c3ncnc4[nH]ccc34)cn2)C1  change in binding constant (Alpha-1-acid glycoprotein 1 (ORM1, Homo sapiens, UniProt P02763); together with: Cu^2+): -37.8%
Nc1ncnc2c1ncn2[C@@H]1O[C@H](CO[P@](=O)(O)O[P@](=O)(O)O[P@@](=O)(O)S)[C@@H](O)[C@H]1O  -TΔS (GUK1 (Homo sapiens, UniProt Q16774, S13A); binding, ITC): -2.81 kcal/mol
CC(C)=CCC/C(C)=C/C=C/C(C)=C/C=C/C(C)=C/C=C/C=C(C)/C=C/C=C(C)/C=C/C=C(\C)CCC=C(C)C  number of binding sites (Beta-lactoglobulin (LGB, Bos taurus, UniProt P02754); fluorescence quenching; concentration not given, 308 K): 1.28
Nc1ccc(C(=O)O)cc1  current density (BEST1, with wild-type BEST1 (Homo sapiens, UniProt O76090, L234P); ion current, whole-cell patch clamp; HEK293 co-expressing mutant and wild-type; concentration not given, voltage -60 mV): -12.6 pA/pF and -15.7 pA/pF and -4.93 pA/pF and -9.08 pA/pF and -8.47 pA/pF and -31.9 pA/pF

A few entries again:
Cc1ccc(-n2nc(C)c3c(N)nc(N)nc32)c(Cl)c1  remaining binding (Serine/threonine-protein kinase RIO2 (RIOK2, Homo sapiens, UniProt Q9BVS4); KinomeScan competition; 7.5 µM): 21%
O=C(O)C1CCCNC1 (centres unmarked)  normalised MST signal (Sodium- and chloride-dependent taurine transporter (SLC6A6, Homo sapiens, UniProt P31641, G62A); binding, microscale thermophoresis; 7.81 µM, room temperature, together with: 50 nM labelled protein; higher = more binding): 0.201
